Assay results of several laboratories.
Protocols differ between the studies behind these lines. ± gives the spread as reported.

Nc1ccn(C[C@@H](CO)OCP(=O)(O)O)c(=O)n1
IC50 (Human adenovirus E serotype 4; viral replication, plaque reduction; A549, RI-6; 5 days): 16.6 ± 2.9 µM

COc1cc(C)c(-c2c(C)cc(OC)c3c(=O)cc(-c4ccc(N(C)C)cc4)oc23)c2oc(-c3ccc(N(C)C)cc3)cc(=O)c12
IC50 (Toxoplasma gondii; parasite proliferation, 3H-uracil incorporation; HS27 host cells, ME49 tachyzoites): 1.6 µM

Cc1ccc(Nc2nc(-c3cc(C(=O)Nc4ccccc4C)no3)cs2)cc1
IC50 (Mycobacterium avium; 11; 96 h): > 100 µM

CC(C)(C)C(=O)Nc1ccc2[nH]c3c(C4=C[C@@]5(O)CC/C=C\CCCCN6CC[C@@H]4[C@]4(C[C@@H]7/C=C\CCCCN7[C@H]45)C6)nccc3c2c1
IC50 (Mycobacterium intracellulare; microbial growth): 1.31 µM

O=C1CSC(=S)N1/N=C/c1cn(Cc2ccc(F)cc2)c2ccc([N+](=O)[O-])cc12
IC50 (Leishmania donovani; parasite growth, resazurin; THP-1; 24 h, intracellular, amastigote): > 10 µM

COc1ccc(-c2cc(=O)c3cc(OC)ccc3o2)c(OC)c1
IC50 (human immunodeficiency virus 1; viral transcription, luciferase reporter; MT2 transfected with pNL4.3-Luc; 48 h): 0.64 µM

[H]/N=C(\N/C(=N/[H])Nc1ccc(Cl)cc1)NC(C)C
IC50 (Plasmodium yoelii; oxygen consumption; 17XL): > 12 µM

N#CSCCOc1cccc(Oc2ccccc2)c1
IC50 (Toxoplasma gondii; hTERT fibroblasts, RFP-expressing tachyzoites): 4 µM

Cc1cc(C)cc(Nc2nc(-c3cc(C(=O)Nc4ccccc4)no3)cs2)c1
IC50 (Mycobacterium avium; 11; 96 h): > 100 µM

C[C@]12CCC(=O)C=C1C=C[C@@H]1[C@@H]2CC[C@@]2(C)[C@H]1CC[C@@]21CCC(=O)O1
IC50 (human immunodeficiency virus 1; viral transcription, luciferase reporter; MT2 transfected with pNL4.3-Luc; 48 h): 9.2 µM

O=C1C(O)=C([C@H]2CC[C@H](c3ccc(Cl)cc3)CC2)C(=O)c2ccccc21
IC50 (Plasmodium yoelii; oxygen consumption; 17XL, infected red blood cells): 0.005 ± 0.001 µM

CO[C@H]1/C=C/O[C@@]2(C)Oc3c(C)c(O)c4c(c3C2=O)C2=NC3(CCN(CC(C)C)CC3)NC2=C(NC(=O)/C(C)=C\C=C\[C@H](C)[C@H](O)[C@@H](C)[C@@H](O)[C@@H](C)[C@H](OC(C)=O)[C@@H]1C)C4=O
IC50 (Mycobacteroides abscessus; ATCC 19977; 50% human serum): 2.5 µM

Cc1ccc(Nc2nc(-c3cc(C(=O)Nc4ccc(F)cc4)no3)cs2)cc1
IC50 (Mycobacterium avium; 11; 96 h): > 100 µM

Cc1ccc(Cn2cc(/C=N/N3C(=O)CSC3=S)c3cc([N+](=O)[O-])ccc32)cc1
IC50 (Leishmania donovani; parasite growth, resazurin; THP-1; 72 h, intracellular, amastigote): > 10 µM

Cc1ccc(Nc2nc(-c3cc(C(=O)Nc4cc(C)ccn4)no3)cs2)cc1
IC50 (Mycobacterium avium; 11; 96 h): > 100 µM

NC(=O)c1ncn([C@@H]2O[C@H](CO)[C@@H](O)[C@H]2O)n1
IC50 (Human adenovirus E serotype 4; viral replication, plaque reduction; A549, RI-6; 5 days): > 40 µM

Cc1ccc(Nc2nc(-c3cc(C(=O)Nc4ccccc4)no3)co2)cc1
IC50 (Mycobacterium avium; 11; 96 h): > 100 µM

CC(C)(C)C1=CC(=NNC(=O)c2ccccc2)C=C(C(C)(C)C)C1=O
IC50 (Toxoplasma gondii; parasite growth, fluorescence; 5 days, intracellular): 2 µM

For quick reference, copied from above:
Cc1ccc(Cn2cc(/C=N/N3C(=O)CSC3=S)c3cc([N+](=O)[O-])ccc32)cc1
IC50 (Leishmania donovani; parasite growth, resazurin; THP-1; 72 h, intracellular, amastigote): > 10 µM

Cc1ccc(Nc2nc(-c3cc(C(=O)Nc4cc(C)ccn4)no3)cs2)cc1
IC50 (Mycobacterium avium; 11; 96 h): > 100 µM
